Published values gathered from unrelated publications.
Each numbered part is a random draw from the data of one study; scales do not carry over between parts.
Sequence of UniProt Q15349 (whole entry, looked up): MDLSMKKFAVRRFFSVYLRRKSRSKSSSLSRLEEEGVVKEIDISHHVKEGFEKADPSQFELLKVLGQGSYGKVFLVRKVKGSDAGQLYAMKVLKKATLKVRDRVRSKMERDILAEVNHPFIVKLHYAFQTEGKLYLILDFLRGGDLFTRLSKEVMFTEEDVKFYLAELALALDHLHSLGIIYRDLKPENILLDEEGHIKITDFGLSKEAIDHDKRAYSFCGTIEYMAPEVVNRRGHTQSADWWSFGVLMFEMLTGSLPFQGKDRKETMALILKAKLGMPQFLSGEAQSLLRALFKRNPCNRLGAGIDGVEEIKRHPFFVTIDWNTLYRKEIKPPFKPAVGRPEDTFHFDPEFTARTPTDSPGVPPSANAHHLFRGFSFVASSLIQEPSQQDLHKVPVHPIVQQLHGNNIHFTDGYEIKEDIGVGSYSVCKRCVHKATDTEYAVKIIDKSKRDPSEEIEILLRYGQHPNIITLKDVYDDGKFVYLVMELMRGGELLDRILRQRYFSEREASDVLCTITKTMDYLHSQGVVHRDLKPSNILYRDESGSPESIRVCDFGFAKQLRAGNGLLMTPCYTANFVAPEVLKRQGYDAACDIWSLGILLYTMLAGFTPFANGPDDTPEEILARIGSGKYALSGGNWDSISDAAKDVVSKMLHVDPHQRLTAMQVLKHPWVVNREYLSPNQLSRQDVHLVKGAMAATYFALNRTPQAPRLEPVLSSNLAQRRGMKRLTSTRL
Sequence of UniProt P61075 (whole entry, looked up): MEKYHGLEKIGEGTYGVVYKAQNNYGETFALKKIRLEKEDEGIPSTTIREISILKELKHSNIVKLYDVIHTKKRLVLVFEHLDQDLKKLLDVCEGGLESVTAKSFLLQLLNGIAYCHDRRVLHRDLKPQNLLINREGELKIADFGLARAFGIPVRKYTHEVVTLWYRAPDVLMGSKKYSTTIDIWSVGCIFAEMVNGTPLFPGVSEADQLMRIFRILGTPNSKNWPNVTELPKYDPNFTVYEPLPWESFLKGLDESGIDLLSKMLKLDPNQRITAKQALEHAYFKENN
Sequence of UniProt Q8WXR4 (whole entry, looked up): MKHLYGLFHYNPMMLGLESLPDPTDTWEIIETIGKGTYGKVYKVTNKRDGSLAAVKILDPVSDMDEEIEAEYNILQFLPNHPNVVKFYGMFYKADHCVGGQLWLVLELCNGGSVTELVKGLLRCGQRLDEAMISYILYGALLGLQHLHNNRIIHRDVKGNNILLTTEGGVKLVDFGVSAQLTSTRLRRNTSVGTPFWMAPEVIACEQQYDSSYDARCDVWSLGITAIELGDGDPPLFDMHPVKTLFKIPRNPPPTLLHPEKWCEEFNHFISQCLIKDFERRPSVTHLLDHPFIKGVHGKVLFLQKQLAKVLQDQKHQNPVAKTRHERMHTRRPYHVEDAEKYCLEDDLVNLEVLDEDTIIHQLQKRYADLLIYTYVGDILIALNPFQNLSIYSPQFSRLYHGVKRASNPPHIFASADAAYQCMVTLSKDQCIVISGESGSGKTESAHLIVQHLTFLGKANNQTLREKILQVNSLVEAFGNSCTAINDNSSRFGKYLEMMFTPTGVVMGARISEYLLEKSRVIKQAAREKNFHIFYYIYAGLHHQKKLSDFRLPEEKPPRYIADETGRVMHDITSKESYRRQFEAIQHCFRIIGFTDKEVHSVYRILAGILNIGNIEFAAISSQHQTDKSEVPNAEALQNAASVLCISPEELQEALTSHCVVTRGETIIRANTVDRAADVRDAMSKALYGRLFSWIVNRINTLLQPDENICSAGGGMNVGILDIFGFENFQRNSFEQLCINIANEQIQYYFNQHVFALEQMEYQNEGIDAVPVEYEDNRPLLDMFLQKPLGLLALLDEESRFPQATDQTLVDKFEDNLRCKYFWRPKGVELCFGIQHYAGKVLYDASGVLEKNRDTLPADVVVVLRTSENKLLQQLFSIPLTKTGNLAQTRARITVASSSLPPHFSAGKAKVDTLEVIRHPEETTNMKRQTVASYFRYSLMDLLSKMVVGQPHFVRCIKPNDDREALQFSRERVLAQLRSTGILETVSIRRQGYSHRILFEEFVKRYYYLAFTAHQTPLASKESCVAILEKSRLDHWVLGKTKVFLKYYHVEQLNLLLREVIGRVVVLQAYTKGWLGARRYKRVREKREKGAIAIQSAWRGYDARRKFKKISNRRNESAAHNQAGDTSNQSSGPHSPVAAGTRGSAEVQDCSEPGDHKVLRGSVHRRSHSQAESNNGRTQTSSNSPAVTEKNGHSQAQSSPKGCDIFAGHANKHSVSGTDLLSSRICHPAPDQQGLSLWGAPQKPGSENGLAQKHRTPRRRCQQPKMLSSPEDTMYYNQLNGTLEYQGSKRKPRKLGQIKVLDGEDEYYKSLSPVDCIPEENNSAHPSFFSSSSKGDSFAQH

Sample 1 — effect on: enzyme activity; action: inhibitor; concentration: 77 µM; baseline: untreated
Target: DNA polymerase theta, ATPase domain (POLQ, Homo sapiens, UniProt O75417)
Sequence of UniProt O75417 (whole entry, unmodified, looked up): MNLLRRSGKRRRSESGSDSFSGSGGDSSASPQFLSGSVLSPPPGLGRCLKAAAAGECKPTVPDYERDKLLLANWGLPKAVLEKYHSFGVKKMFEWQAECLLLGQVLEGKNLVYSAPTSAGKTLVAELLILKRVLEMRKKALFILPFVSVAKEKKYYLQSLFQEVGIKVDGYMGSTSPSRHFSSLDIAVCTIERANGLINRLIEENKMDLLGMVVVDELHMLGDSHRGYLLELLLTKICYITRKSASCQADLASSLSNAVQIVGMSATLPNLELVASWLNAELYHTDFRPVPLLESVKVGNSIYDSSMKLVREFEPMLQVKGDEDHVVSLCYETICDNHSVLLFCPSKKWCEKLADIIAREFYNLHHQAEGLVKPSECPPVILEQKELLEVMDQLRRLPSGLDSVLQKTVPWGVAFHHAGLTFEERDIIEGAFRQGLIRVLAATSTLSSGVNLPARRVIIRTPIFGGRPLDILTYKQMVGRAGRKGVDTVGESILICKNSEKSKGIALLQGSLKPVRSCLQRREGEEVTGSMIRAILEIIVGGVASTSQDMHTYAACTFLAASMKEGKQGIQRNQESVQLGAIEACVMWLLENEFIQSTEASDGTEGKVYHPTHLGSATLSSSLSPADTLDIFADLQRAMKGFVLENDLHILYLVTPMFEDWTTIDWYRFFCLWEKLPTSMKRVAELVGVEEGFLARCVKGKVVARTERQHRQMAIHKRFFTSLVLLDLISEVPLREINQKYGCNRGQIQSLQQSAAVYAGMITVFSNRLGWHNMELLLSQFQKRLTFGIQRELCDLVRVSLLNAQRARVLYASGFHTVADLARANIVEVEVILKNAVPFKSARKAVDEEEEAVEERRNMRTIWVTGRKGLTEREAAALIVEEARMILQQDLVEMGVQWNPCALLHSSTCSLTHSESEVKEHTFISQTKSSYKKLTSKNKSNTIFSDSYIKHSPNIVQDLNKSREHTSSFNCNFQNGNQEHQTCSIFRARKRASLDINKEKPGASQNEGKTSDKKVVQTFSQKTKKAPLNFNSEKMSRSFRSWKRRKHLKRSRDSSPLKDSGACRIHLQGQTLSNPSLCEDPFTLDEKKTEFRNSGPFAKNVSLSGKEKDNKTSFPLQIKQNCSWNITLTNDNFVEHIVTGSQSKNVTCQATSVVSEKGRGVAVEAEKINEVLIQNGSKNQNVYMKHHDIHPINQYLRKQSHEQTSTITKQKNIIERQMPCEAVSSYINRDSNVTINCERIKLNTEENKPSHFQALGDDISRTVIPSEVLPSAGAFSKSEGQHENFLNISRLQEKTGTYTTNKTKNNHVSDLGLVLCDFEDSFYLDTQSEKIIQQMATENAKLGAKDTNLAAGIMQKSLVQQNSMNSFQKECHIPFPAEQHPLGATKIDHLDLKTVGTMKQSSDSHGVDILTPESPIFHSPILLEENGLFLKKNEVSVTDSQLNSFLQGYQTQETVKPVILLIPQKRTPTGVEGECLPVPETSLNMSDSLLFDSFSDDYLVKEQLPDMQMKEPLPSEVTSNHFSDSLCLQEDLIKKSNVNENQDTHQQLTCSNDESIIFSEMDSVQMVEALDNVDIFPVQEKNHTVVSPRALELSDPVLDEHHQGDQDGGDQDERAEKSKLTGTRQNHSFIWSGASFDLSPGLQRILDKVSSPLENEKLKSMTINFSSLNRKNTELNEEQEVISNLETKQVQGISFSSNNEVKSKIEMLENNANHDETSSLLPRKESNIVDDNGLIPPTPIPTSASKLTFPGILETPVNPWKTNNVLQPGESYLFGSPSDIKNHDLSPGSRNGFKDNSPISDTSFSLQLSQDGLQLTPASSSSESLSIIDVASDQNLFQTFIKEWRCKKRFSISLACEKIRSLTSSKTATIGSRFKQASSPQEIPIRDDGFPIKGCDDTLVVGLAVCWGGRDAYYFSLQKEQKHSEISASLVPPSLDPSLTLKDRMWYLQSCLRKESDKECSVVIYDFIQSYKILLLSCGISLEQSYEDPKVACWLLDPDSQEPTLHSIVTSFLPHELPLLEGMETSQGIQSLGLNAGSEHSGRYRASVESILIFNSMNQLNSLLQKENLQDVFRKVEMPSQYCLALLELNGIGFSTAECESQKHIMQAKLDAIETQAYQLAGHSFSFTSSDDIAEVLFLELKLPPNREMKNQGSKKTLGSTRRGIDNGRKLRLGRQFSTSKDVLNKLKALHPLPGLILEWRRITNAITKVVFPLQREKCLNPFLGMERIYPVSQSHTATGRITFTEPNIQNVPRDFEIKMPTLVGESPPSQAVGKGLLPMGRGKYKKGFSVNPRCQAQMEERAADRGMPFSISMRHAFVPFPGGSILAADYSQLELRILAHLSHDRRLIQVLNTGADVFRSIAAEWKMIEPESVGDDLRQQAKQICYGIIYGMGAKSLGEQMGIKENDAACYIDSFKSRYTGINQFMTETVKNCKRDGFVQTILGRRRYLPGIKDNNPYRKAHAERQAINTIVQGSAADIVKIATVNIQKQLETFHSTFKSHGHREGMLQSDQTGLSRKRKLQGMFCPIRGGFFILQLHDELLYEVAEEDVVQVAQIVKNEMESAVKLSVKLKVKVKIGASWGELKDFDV
Structure (SMILES)	remaining activity
O=c1oc2ccccc2c(O)c1Cc1c(O)c2ccccc2oc1=O	98.8%
O=C1c2ccccc2-c2n[nH]c3cccc1c23	73.1%
O=C(/C=C/c1ccc(CN(CCO)CCc2c[nH]c3ccccc23)cc1)NO	106%
C[C@@]12C[C@@]3(O)O[C@@H](O1)[C@]1(COC(=O)c4ccccc4)[C@H]3C[C@@]12O[C@@H]1O[C@H](CO)[C@@H](O)[C@H](O)[C@H]1O	90.5%
CC(C)(C)NCC(O)COc1cccc2c1C[C@H](O)[C@H](O)C2 (mixture of isomers)	112%
N#CC[C@H](C1CCCC1)n1cc(-c2ncnc3[nH]ccc23)cn1	104%
CC(=O)N(CC(O)CO)c1c(I)c(C(=O)NCC(O)CO)c(I)c(C(=O)NCC(O)CO)c1I (mixture of isomers)	99%
CC1=CC(=O)C2=C(C)CC[C@@H]3[C@H](OC(=O)[C@H]3C)[C@@H]12	101%
C[C@@H](O)[C@H]1C(=O)N2C(C(=O)O)=C(S[C@@H]3CN[C@H](CNS(N)(=O)=O)C3)[C@H](C)[C@H]12	93.5%
NC(=O)c1ccccc1	96.2%
C/C(=C\C(=O)OCCCCCCCCC(=O)O)C[C@@H]1OC[C@H](C[C@@H]2O[C@H]2[C@@H](C)[C@H](C)O)[C@@H](O)[C@H]1O	95.1%
O=C(O[C@H]1C[C@H]2CC[C@@H](C1)[N+]21CCCC1)C(O)(c1ccccc1)c1ccccc1	101%
CCCCCC[C@@H]([C@@H](C)O)n1cnc2c(N)ncnc21	101%

Sample 2 — concentration: 1 µM
SMILES: C=CC(=O)N1CCC([C@@H]2CCNc3c(C(N)=O)c(-c4ccc(Oc5ccccc5)cc4)nn32)CC1
target	effect on	action	inhibition [%]
PRKD3 (Homo sapiens, UniProt O94806)	enzyme activity	inhibitor	31
Myosin-IIIb (MYO3B, Homo sapiens, UniProt Q8WXR4)	enzyme activity	inhibitor	22
AKT3 (Homo sapiens, UniProt Q9Y243)	enzyme activity	inhibitor	11
CSNK1G1 (Homo sapiens, UniProt Q9HCP0)	enzyme activity	inhibitor	0
CHEK1 (Homo sapiens, UniProt O14757)	enzyme activity	inhibitor	21
EGFR (Homo sapiens, UniProt P00533, del752-759)	cell-free assay	–	16
STK32A (Homo sapiens, UniProt Q8WU08)	cell-free assay	–	0
CRK2 (Plasmodium falciparum, UniProt P61075)	enzyme activity	inhibitor	0
KIT (Homo sapiens, UniProt P10721, V559D)	enzyme activity	inhibitor	1
FLT3 (Homo sapiens, UniProt P36888, K663Q)	enzyme activity	inhibitor	39
Ribosomal protein S6 kinase alpha-2, kinase domain 2 (RPS6KA2, Homo sapiens, UniProt Q15349)	–	inhibitor	14
TTK (Homo sapiens, UniProt P33981)	enzyme activity	inhibitor	47

Sample 3 — effect on: enzyme activity; action: inhibitor; concentration: 0.5 µM; baseline: control
Compound: COc1cc2c(Nc3ccc(Br)cc3F)ncnc2cc1OCC1CCN(C)CC1
target	remaining activity
ERBB2 (Homo sapiens, UniProt P04626)	72.2%
FES (Homo sapiens, UniProt P07332)	104%
PIM1 (Homo sapiens, UniProt P11309)	95%
DYRK1A (Homo sapiens, UniProt Q13627)	106%
YES1 (Homo sapiens, UniProt P07947)	11.3%
RPS6KB2 (Homo sapiens, UniProt Q9UBS0)	101%
PAK4 (Homo sapiens, UniProt O96013)	90.2%
MARK1 (Homo sapiens, UniProt Q9P0L2)	83.7%
JAK2 (Homo sapiens, UniProt O60674)	102%

Sample 4 — effect on: cell-free assay; method: competition with immobilised ligand; concentration: 1 µM
SMILES: COc1ccc2c(c1)O[C@@H](c1ccc(OC)c(OC)c1)C[C@H]2NC(=O)C1(c2ccc3c(c2)OC(F)(F)O3)CC1
target	remaining binding
PIK3CA (Homo sapiens, UniProt P42336, E545K)	77%
VRK2 (Homo sapiens, UniProt Q86Y07)	67%
CLK4 (Homo sapiens, UniProt Q9HAZ1)	100%
STK36 (Homo sapiens, UniProt Q9NRP7)	100%
CDC42BPA (Homo sapiens, UniProt Q5VT25)	90%
EPHB1 (Homo sapiens, UniProt P54762)	87%
SRPK2 (Homo sapiens, UniProt P78362)	91%
WNK1 (Homo sapiens, UniProt Q9H4A3)	100%
CDK3 (Homo sapiens, UniProt Q00526)	100%
AKT2 (Homo sapiens, UniProt P31751)	100%
Ribosomal protein S6 kinase alpha-2, N-terminal kinase domain (RPS6KA2, Homo sapiens, UniProt Q15349)	90%
Tyrosine-protein kinase ABL1, phosphorylated (ABL1, Homo sapiens, UniProt P00519, Y253F)	78%
ZAP70 (Homo sapiens, UniProt P43403)	71%
COQ8B (Homo sapiens, UniProt Q96D53)	100%
MET (Homo sapiens, UniProt P08581, Y1235D)	100%
WNK4 (Homo sapiens, UniProt Q96J92)	85%

Some of these lines once more (sample 3):
target	remaining activity
ERBB2 (Homo sapiens, UniProt P04626)	72.2%
FES (Homo sapiens, UniProt P07332)	104%
PIM1 (Homo sapiens, UniProt P11309)	95%
DYRK1A (Homo sapiens, UniProt Q13627)	106%
YES1 (Homo sapiens, UniProt P07947)	11.3%
RPS6KB2 (Homo sapiens, UniProt Q9UBS0)	101%
PAK4 (Homo sapiens, UniProt O96013)	90.2%
